Measurements collected from several papers.
Numbered parts are unrelated; each lists some results of a single study. Positions count from the first letter of the parent shown.

Sample 1
Target: ABI1, truncated, D143A, DHFR fusion (Arabidopsis thaliana)
Method: DHFR PCA, deep sequencing
Medium: yeast
Setting: methotrexate growth selection, single substitutions
With: (+)-ABA 200 µM
Relative to: wild-type fitted maximum
Reading: higher = stronger binding
Starting sequence: PYL1, truncated, DHFR fusion (Arabidopsis thaliana); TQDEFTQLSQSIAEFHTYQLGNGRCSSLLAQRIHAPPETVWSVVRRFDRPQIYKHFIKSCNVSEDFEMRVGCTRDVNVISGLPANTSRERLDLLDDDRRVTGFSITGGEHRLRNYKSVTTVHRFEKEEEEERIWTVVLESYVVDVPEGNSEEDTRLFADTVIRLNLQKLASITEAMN
For `N114W`, “relative binding score” read 8.96%.
`F103P` — result for “relative binding score”: 1.56%.
`D95F`: “relative binding score” 55.7%.
`E128A` — result for “relative binding score”: 103%.
Under “relative binding score”, `D96L` is recorded as 38.9%.
`T17R`: “relative binding score” 91.4%.
Under “relative binding score”, `V143L` is recorded as 70.6%.
Under “relative binding score”, `V121L` is recorded as 96%.
`S27N` — result for “relative binding score”: 101%.
Under “relative binding score”, `T1D` is recorded as 98%.
`L8N` — result for “relative binding score”: 88.5%.
For `T6G`, “relative binding score” read 97.4%.
For `F5E`, “relative binding score” read 87%.
`R99C` — result for “relative binding score”: 93.4%.
Under “relative binding score”, `A158S` is recorded as 78.4%.

Sample 2
Target: RNA binding protein fox-1 homolog 2, RRM domain, GST-SBP tag (RBFOX2, Homo sapiens, UniProt O43251-10, residues 100-194)
Method: RNA Bind-n-Seq
Form: RNA
Medium: in vitro
Concentration: 365 nM
Setting: natural RNA segment, single round, ends assumed
Relative to: no-protein control
Reading: higher = stronger binding
Target sequence (chain): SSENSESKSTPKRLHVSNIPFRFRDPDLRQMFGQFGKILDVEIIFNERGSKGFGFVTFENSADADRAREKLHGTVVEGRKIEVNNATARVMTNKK
`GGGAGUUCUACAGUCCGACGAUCGAAAUGAUUGUUAACAUCACAGGCAUGGCACCGAACACUGUAGAGAUGCACAGUCAGUUGAACUUAGUAGCAACGCUGGCUUUGUGUAAUAAAGGAAGCAUUUGUAACUUUGGAAUUCUCGGGUGCCAA`: “RBNS enrichment (R)” 0.537.
`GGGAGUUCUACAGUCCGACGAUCUGGCUAGCUAUGGUUUUCAGUACAUUUCCUACUUUAAGAGUAAUUACUGACAAAUAUGUAUUUCCUAUAUGUUUAUACUUUGAUUAUAAAAAAGUAUUUUGUUUUGAUUUUGGAAUUCUCGGGUGCCAA`: “RBNS enrichment (R)” 0.658.
For `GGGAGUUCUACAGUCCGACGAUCGCAGUGUGAGAGAAAGCCAGGACCCGACAUGCUGUCCGUUAACGCUACGUCUGCUGUAGUUCCAUUUUGUAUGUUGUGUAAAGCGAGCAUCGAUCGAAGCAAAAGGUGAUUGGAAUUCUCGGGUGCCAA`, “RBNS enrichment (R)” read 2.47.
Under “RBNS enrichment (R)”, `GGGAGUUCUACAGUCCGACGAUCGGCAUAGAAUAGGUGCUCAGUAUAUGGUCAGUAAAUGUUCUAUUGAUUAUCAAUCAGUGAAAAAAGAAAUCUGUUUAAAAUACUGAAUUUUCAUCUCACUCCCAUUGCAAUGGAAUUCUCGGGUGCCAA` is recorded as 0.489.
`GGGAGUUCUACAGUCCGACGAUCCUCCCACUGUCCUCAGAGAGCCUGCAUGGAAAUGCUGUCCUCUUCCACUCUCCUCCUCUUUUUGAUACCCACCCUCACUAGCUGCCUCCAGCUCUGGAGUGGGGUGCUAUUGGAAUUCUCGGGUGCCAA` — result for “RBNS enrichment (R)”: 0.849.
`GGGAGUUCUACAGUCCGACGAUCUUGCUUACUGAUGUAUCUAUUUGUACAGAUAGUGGAGAGCUAGUUGCUAAUAAUGUCUUGUUUGGGUCUCCCAAACCCUACCUCUCAACUCCCUUAAGAGUAUCACUGUUUGGAAUUCUCGGGUGCCAA` — result for “RBNS enrichment (R)”: 0.339.
Under “RBNS enrichment (R)”, `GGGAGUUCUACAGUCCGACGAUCGGGAGUGCUCCACUCCCUAGCAGAGCAGAGGGAAGUCUCUGCCAGGUACCCACGCCACAGGCCUCAGGAUGGCUUUUUGUCUGAGGGCCUCAUUAGGCCCAGACUGCUGCUGGAAUUCUCGGGUGCCAA` is recorded as 0.345.
Under “RBNS enrichment (R)”, `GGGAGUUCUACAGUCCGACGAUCUAGGCCGGUGUCGGUUCUGUUUCUCCCCUUGGCUGCCUGUACGCCCACAGCCUUCUGGCUGCGACAUUAUAGAAUCGGCCGUGUCCCCCCUGGUGGGGGAUUGGGGAUCUUGGAAUUCUCGGGUGCCAA` is recorded as 0.284.

Sample 3
Target: FOSB, bZIP domain (human)
Method: DHFR protein complementation
Medium: yeast
Setting: single substitutions, most at no-binding floor
Relative to: wild-type JUN-FOS pair
Reading: higher = stronger binding
Starting sequence: JUN, bZIP domain (human); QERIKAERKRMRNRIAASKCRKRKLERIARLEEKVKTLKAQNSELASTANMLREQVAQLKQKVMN; partner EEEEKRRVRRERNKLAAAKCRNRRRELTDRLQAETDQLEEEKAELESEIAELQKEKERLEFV
For `M51C`, the binding fitness was -0.271 natural log.
For `E44F`, the binding fitness was -0.137 natural log.
For `T37W`, the binding fitness was -0.0679 natural log.
`S47D` gave a binding fitness of -0.00667 natural log.
`E44H` gave a binding fitness of -0.178 natural log.
With `V35K` the binding fitness was -0.0676 natural log.
With `L45F` the binding fitness was -0.976 natural log.
The binding fitness of `A29E` is reported as -0.226 natural log.
`S43G` has a binding fitness of -0.107 natural log.
The binding fitness of `L52A` is reported as -0.853 natural log.
The binding fitness of `I28A` is reported as -0.199 natural log.
The binding fitness of `A29K` is reported as -0.303 natural log.
With `A29D` the binding fitness was -0.204 natural log.
The binding fitness of `Q41R` is reported as -0.0808 natural log.
`I28K` gave a binding fitness of -0.274 natural log.
With `N42T` the binding fitness was -0.116 natural log.
`R53S` gave a binding fitness of -0.685 natural log.
`E44L` gave a binding fitness of -0.109 natural log.
With `S47E` the binding fitness was 0.0388 natural log.
The binding fitness of `K34W` is reported as -0.158 natural log.
`E33W` gave a binding fitness of -0.275 natural log.
For `E33V`, the binding fitness was -0.336 natural log.
For `Q55V`, the binding fitness was -0.179 natural log.
`E33Q` has a binding fitness of -0.275 natural log.

Sample 4
Target: CCNE2, cyclin fold, Cln2 fusion (human)
Method: yeast growth competition, sequencing
Medium: yeast
Setting: strong parent motif
Relative to: not given
Reading: higher = stronger binding
Starting sequence: REPIN1 docking peptide (human); QSFRGWVALVLHL
`QAFRGWVALVLHL [S2A]` — result for “normalised enrichment score”: 0.889.
`QSARGWVALVLHL [F3A]` — result for “normalised enrichment score”: 0.893.
For `QSFRGWVALALHL [V10A]`, “normalised enrichment score” read 0.569.
`QSFRAWVALVLHL [G5A]`: “normalised enrichment score” 1.42.
Under “normalised enrichment score”, `QSFRGAVALVLHL [W6A]` is recorded as 0.547.
`ASFRGWVALVLHL [Q1A]`: “normalised enrichment score” 0.638.

Sample 5
Target: Sal-like protein 4, full length isoform B (SALL4, Homo sapiens, UniProt Q9UJQ4-2, residues 1-616)
Method: universal PBM
Form: double-stranded DNA, one strand shown
Medium: in vitro
Concentration: not given
Setting: 8-mer, flanks averaged, mean of replicates
Reading: higher = stronger binding
Construct (chain): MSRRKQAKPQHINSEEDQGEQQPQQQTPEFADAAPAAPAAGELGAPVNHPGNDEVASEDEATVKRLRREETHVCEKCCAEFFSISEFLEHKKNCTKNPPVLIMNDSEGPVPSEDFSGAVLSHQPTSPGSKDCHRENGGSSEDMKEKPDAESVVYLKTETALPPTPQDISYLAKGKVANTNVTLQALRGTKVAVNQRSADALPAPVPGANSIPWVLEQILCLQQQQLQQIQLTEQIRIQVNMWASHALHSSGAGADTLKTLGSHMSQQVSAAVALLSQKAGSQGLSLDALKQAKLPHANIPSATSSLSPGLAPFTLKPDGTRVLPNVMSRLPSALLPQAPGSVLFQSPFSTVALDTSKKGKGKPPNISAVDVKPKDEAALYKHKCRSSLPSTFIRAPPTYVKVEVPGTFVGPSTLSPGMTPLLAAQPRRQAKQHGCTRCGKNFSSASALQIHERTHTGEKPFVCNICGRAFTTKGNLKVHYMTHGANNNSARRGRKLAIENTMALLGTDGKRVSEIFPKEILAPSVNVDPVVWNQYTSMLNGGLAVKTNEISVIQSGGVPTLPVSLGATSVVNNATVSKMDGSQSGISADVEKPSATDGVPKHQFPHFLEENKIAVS
The E-score of `GCAAGGTA` is reported as 0.0607.
For `GAATTGTA`, the E-score was 0.115.
`TCTAATAA` has an E-score of 0.349.
`CATGATAG` gave an E-score of 0.212.
The E-score of `GATCCTCA` is reported as -0.00355.
`CGTTCCAA` has an E-score of 0.0948.
`CGAACTGC` has an E-score of -0.0725.
`GCCTGTAA` gave an E-score of -0.0513.
For `AGTTTGAA`, the E-score was 0.186.
`ACATCTCG` has an E-score of 0.0746.
`GCGGGCCC` gave an E-score of -0.301.
With `GAGCGGCC` the E-score was -0.398.
For `GTGAGTAA`, the E-score was 0.0319.
With `TCAACCCA` the E-score was -0.00911.
The E-score of `GGGCAATA` is reported as 0.0692.
The E-score of `CTGCGACA` is reported as -0.15.
The E-score of `CGCATCAG` is reported as -0.0476.
The E-score of `ATCGGGTA` is reported as -0.0803.
With `GCGTGCAC` the E-score was -0.158.
The E-score of `TTCCCCAA` is reported as -0.103.
`CAGCTACA` gave an E-score of -0.00552.
`AAGTGGTA` has an E-score of 0.0847.
With `ATCTAATC` the E-score was 0.3.
`TCATAAGA` gave an E-score of 0.324.
The E-score of `ATAAGTTA` is reported as 0.349.

For quick reference, copied from above (sample 1):
Under “relative binding score”, `D96L` is recorded as 38.9%.
Under “relative binding score”, `V121L` is recorded as 96%.
Under “relative binding score”, `A158S` is recorded as 78.4%.
Under “relative binding score”, `V143L` is recorded as 70.6%.
Under “relative binding score”, `T1D` is recorded as 98%.
`D95F`: “relative binding score” 55.7%.
For `N114W`, “relative binding score” read 8.96%.
`L8N` — result for “relative binding score”: 88.5%.
`R99C` — result for “relative binding score”: 93.4%.
